# Assay results collected from several papers.
# Each numbered part is a random draw from the data of one study; scales do not carry over between parts. Several values in a cell are separate wells, animals, samples, runs or records.
# UniProt P29597, sequence (whole entry, looked up): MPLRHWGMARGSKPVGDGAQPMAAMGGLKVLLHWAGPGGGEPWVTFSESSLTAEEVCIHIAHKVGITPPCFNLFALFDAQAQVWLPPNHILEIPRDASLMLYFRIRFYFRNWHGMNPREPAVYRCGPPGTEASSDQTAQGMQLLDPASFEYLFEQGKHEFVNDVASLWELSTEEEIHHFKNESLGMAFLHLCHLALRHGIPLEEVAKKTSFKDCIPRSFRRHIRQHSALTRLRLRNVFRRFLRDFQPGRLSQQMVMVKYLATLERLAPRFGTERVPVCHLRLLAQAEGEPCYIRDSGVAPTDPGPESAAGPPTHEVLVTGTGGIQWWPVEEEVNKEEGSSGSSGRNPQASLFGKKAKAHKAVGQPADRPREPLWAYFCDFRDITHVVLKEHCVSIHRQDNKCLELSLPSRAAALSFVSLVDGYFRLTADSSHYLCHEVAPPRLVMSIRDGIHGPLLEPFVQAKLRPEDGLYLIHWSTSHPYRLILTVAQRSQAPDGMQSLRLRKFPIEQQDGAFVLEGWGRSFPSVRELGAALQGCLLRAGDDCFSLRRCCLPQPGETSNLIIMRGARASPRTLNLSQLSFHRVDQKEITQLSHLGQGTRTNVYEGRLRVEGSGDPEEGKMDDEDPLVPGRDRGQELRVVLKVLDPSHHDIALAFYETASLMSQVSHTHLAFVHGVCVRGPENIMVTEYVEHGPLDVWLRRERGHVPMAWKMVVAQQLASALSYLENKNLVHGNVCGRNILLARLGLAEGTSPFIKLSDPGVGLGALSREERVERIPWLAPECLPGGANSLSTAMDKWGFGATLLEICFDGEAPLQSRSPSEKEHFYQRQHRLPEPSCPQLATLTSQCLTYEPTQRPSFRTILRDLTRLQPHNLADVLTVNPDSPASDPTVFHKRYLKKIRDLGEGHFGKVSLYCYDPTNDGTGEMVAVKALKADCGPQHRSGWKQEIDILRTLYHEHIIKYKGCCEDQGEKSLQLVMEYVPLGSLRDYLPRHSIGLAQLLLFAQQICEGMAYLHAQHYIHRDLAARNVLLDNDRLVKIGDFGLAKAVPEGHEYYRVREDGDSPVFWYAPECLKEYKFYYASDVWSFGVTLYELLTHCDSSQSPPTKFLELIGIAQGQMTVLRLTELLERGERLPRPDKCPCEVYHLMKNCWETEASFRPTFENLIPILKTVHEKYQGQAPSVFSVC
# UniProt Q9UQB9, sequence (whole entry, looked up): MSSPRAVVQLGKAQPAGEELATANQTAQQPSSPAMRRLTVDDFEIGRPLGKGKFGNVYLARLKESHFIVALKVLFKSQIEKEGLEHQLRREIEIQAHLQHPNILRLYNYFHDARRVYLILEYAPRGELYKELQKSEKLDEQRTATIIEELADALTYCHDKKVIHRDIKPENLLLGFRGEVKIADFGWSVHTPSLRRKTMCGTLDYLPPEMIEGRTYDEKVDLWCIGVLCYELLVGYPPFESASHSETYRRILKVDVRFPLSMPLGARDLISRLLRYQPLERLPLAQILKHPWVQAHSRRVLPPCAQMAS

# Sample 1 — observed: enzyme activity; mode: inhibitor; tested at: 0.5 µM; reference: control
# Target: Tyrosine-protein kinase SYK (SYK, Homo sapiens, UniProt P43405)
Compound,remaining activity
CCOc1cc2ncnc(Nc3cccc(Br)c3)c2cc1OCC,95.6%
C[S+]([O-])c1ccc(-c2nc(-c3ccncc3)c(-c3ccc(F)cc3)[nH]2)cc1 (stereo not drawn),98%
CS(=O)(=O)CCNCc1ccc(-c2ccc3ncnc(Nc4ccc(OCc5cccc(F)c5)c(Cl)c4)c3c2)o1,113%
Cn1cc(/C=C2\C(=O)Nc3ccc(S(N)(=O)=O)cc32)c2ccccc21,16.5%
CCC(=O)Nc1ccc2ncnc(Nc3cccc(Br)c3)c2c1,94.3%
COc1cc2ncnc(N3CCN(C(=O)Nc4ccc(Oc5ccccc5)cc4)CC3)c2cc1OC,93.2%
CN(C)CCCn1cc(C2=C(c3c[nH]c4ccccc34)C(=O)NC2=O)c2ccccc21,90%
CC(=O)O/N=C1/C(c2c(O)[nH]c3cc(Br)ccc23)=Nc2ccccc21,88.3%
O=c1cc(N2CCOCC2)oc2c1ccc1ccccc12,93%
Cc1nc(Nc2ncc(C(=O)Nc3c(C)cccc3Cl)s2)cc(N2CCN(CCO)CC2)n1,65.5%
CC(C)c1nn(-c2c(Cl)cccc2Cl)c2nc(Cc3ccc(OCCO)cc3)[nH]c(=O)c12,98.6%
COc1cc2ncc(-c3ccccc3)nc2cc1OC,92.5%
Cn1cnc2cc3c(Nc4cccc(Br)c4)ncnc3cc21,98.5%
COc1ccc(Cl)cc1NC(=O)Nc1cc(C)nc2ccccc12,88.2%
COc1ccc(-c2cnc3c(-c4ccsc4)cnn3c2)cc1,101%
O=C(Nc1ccc(Cl)cc1)c1ccccc1NCc1ccncc1,93.6%
Nc1[nH]nc2nnc(-c3c(-c4ccccc4)nn4ccccc34)cc12,97.4%
COc1cc2ncnc(Nc3ccc(OCc4ccccc4)cc3)c2cc1OC,93.1%
CC(C)[C@H](CO)Nc1nc(Nc2cccc(Cl)c2)c2ncn(C(C)C)c2n1,88.9%
O=C1NC(=O)/C(=C/c2ccc3nccnc3c2)S1,98%
CCN1/C(=C/C(C)=O)Sc2ccc(OC)cc21,94.8%

# Sample 2 — observed: enzyme activity; mode: inhibitor; tested at: 77 µM; reference: untreated
# Target: DNA polymerase theta, ATPase domain (POLQ, Homo sapiens, UniProt O75417)
# UniProt O75417, sequence (whole entry, unmodified, looked up): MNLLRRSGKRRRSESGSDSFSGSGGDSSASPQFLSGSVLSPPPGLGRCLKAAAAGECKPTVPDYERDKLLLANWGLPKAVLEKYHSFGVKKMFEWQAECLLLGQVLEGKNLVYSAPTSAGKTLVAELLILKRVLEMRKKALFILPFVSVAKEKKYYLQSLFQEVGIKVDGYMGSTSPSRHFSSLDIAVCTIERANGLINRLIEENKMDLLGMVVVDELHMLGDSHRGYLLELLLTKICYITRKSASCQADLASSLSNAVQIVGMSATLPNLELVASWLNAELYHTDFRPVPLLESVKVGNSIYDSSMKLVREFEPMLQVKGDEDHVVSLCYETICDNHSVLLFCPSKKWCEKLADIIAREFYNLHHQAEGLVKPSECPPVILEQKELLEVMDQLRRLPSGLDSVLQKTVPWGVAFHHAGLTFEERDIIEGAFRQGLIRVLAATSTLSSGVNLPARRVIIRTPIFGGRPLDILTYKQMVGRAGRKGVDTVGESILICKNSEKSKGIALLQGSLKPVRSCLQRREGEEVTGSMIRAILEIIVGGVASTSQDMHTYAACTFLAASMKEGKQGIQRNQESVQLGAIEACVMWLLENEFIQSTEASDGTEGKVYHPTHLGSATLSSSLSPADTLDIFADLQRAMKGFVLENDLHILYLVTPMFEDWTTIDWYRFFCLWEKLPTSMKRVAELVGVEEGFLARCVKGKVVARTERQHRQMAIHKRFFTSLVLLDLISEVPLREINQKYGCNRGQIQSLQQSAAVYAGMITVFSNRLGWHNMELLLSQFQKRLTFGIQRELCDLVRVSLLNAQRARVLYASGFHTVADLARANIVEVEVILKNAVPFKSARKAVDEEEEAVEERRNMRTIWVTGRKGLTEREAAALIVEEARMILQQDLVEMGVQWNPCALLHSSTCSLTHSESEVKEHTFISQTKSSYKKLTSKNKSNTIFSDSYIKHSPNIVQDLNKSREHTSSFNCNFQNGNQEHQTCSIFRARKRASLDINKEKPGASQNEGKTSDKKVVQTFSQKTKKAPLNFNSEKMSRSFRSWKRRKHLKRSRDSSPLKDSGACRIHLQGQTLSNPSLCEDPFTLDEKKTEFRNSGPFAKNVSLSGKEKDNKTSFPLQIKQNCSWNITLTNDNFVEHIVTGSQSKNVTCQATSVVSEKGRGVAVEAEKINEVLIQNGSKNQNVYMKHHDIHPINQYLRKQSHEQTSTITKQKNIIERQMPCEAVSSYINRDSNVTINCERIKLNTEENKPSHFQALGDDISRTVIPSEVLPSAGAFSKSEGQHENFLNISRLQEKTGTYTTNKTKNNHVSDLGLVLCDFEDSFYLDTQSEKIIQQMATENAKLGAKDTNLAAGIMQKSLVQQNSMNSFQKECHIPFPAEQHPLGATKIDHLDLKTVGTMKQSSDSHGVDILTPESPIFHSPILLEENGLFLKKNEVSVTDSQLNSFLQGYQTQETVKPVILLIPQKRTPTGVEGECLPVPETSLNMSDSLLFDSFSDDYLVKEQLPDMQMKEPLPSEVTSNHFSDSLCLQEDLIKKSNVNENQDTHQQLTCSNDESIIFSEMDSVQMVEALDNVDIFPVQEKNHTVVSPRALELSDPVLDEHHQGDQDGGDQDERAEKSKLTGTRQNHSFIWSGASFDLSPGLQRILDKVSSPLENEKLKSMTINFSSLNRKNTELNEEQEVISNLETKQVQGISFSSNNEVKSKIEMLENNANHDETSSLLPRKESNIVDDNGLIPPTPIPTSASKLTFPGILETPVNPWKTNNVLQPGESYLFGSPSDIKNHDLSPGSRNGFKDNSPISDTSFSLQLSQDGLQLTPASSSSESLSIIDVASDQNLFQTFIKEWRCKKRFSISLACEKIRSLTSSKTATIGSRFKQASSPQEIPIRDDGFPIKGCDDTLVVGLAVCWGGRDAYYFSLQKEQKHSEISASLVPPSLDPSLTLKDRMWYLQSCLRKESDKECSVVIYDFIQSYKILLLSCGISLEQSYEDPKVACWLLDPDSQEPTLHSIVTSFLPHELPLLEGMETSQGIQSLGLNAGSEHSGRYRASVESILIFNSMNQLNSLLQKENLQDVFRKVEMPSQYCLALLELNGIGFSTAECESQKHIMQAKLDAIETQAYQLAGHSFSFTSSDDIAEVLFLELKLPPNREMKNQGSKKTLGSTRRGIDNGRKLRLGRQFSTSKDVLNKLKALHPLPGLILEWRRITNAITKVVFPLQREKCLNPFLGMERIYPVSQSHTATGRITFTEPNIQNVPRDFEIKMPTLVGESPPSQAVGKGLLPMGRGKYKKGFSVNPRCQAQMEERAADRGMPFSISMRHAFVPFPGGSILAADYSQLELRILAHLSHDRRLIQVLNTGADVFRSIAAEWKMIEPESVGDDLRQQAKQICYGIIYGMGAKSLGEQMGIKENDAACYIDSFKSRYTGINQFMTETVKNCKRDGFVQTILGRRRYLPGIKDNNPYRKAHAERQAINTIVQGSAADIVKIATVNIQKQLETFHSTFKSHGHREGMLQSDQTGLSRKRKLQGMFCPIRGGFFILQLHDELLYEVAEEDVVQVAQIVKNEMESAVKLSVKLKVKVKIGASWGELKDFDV
Compound,remaining activity
COc1ccc2c(c1)c(CC(=O)O)c(C)n2C(=O)c1ccccc1,98.1%
CC[C@]12CCCN3CCc4c(n(c5ccccc45)[C@@](O)(C(=O)OC)C1)[C@@H]32,98.5%
CC[C@H]1OC(=O)C[C@@H](O)[C@H](C)[C@@H](O[C@@H]2O[C@H](C)[C@@H](O[C@H]3C[C@@](C)(O)[C@@H](O)[C@H](C)O3)[C@H](N(C)C)[C@H]2O)[C@@H](CC=O)C[C@@H](C)C(=O)/C=C/C(C)=C/[C@@H]1CO[C@@H]1O[C@H](C)[C@@H](O)[C@@H](OC)[C@H]1OC,97.5%
CC1CNCCN1S(=O)(=O)c1cccc2cnccc12 (stereo not drawn),99.7%
NOCC(=O)O,102%
O=C(NCCNCC(O)COc1ccc(O)cc1)N1CCOCC1 (stereo not drawn),104%
O=c1[nH]cnc2[nH]ncc12,101%
NC[C@@H]1O[C@H](O[C@H]2[C@@H](O)[C@H](O[C@@H]3[C@@H](O)[C@H](N)C[C@H](N)[C@H]3O[C@H]3O[C@H](CN)[C@@H](O)[C@H](O)[C@H]3N)O[C@@H]2CO)[C@H](N)[C@@H](O)[C@@H]1O,95.9%
CCC1(c2ccccc2)NC(=O)N(C)C1=O (stereo not drawn),96.1%
Cc1cc(O)c2c(c1)C(=O)c1cc(O)cc(O)c1C2=O,95.1% and 93.2%
COC(=O)C(N)Cc1ccc(Cl)cc1 (racemic),93.3%
CC(C)OC(=O)OCOP(=O)(CO[C@H](C)Cn1cnc2c(N)ncnc21)OCOC(=O)OC(C)C,96.2%

# Sample 3 — observed: RNA clamping; method: fluorescence polarization; tested at: concentration not given; setting: mean of two replicates; together with: FAM-labelled poly r(AG)8 RNA
# Target: Eukaryotic initiation factor 4A-III (Homo sapiens, UniProt P38919)
# UniProt P38919, sequence (whole entry, looked up): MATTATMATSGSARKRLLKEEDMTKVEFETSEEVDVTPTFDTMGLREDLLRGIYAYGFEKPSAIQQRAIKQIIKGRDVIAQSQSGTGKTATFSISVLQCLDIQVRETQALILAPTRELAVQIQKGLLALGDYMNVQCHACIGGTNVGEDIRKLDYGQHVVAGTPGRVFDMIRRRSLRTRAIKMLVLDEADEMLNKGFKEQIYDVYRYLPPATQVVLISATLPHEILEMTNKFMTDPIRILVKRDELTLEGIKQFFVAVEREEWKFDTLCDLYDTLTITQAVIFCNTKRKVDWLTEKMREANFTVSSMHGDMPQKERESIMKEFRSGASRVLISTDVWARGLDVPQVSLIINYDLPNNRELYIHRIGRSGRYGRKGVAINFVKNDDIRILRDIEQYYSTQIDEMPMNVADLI
Compound,fluorescence polarization change [mP]
COC(=O)[C@@H]1[C@@H](c2ccccc2)[C@]2(c3ccc(OC)cc3)Oc3cc(OC)cc(OC)c3[C@@]23NC(c2ccc(C(F)(F)F)cc2)=N[C@@]13O,4
CCOC(=O)COc1nc(-c2ccccc2)nc2c1[C@@H](c1ccccc1)[C@]1(c3ccc(OC)cc3)Oc3cc(OC)cc(OC)c3[C@]21OCC(=O)OCC,3
COC(=O)[C@H]1C(=O)[C@@]2(NCCN3CCOCC3)c3c(OC)cc(OC)cc3O[C@@]2(c2ccc(OC)cc2)[C@@H]1c1ccccc1,10.4
COc1ccc([C@@]23Oc4cc(OC)cc(OC)c4[C@]2(O)c2[nH]nc(O)c2[C@H]3c2ccccc2)cc1,30.8
COc1cc(OC)c2c(c1)O[C@@]1(c3ccc(OC)c(O)c3)[C@H](c3ccccc3)[C@@H](C(=O)N(C)OC)[C@@H](O)[C@@]21O,27.3
COC(=O)/C=C/Oc1nc(-c2ccccc2)nc2c1[C@@H](c1ccccc1)[C@]1(c3ccc(OC)cc3)Oc3cc(OC)cc(OC)c3[C@]21O,1.7
COC(=O)[C@@H]1[C@@H](c2ccccc2)[C@]2(c3ccc(OC)cc3)Oc3cc(OC)cc(OC)c3[C@@]23NC(c2csc(C)n2)=N[C@@]13O,23.6
COC(=O)[C@@H]1[C@@H](c2ccccc2)[C@]2(c3ccc(OC)cc3)Oc3cc(OC)cc(OC)c3[C@@]23OC(c2ccccc2Cl)=N[C@@]13O,1.6
COC(=O)[C@H]1C(=O)[C@@]2(OC)c3c(OC)cc(OC)cc3O[C@@]2(c2ccc(OC)cc2)[C@@H]1c1ccccc1,2.1
COc1ccc([C@@]23Oc4cc(OC)cc(OC)c4[C@]2(O)c2nc(C4CCCCC4)[nH]c(=O)c2[C@H]3c2ccccc2)cc1,30.4
COC(=O)[C@H]1C(=O)[C@@]2(NCC3CCNCC3)c3c(OC)cc(OC)cc3O[C@@]2(c2ccc(OC)cc2)[C@@H]1c1ccccc1,5.6
C#CCNC(=O)/C=C/Cn1c(-c2ccccc2)nc2c(c1=O)[C@@H](c1ccccc1)[C@]1(c3ccc(OC)cc3)Oc3cc(OC)cc(OC)c3[C@]21O,6.2
COC(=O)CCCn1c(-c2ccccc2)nc2c(c1=O)[C@@H](c1ccccc1)[C@]1(c3ccc(OC)cc3)Oc3cc(OC)cc(OC)c3[C@]21O,14.6
COC(=O)[C@H]1C(=O)[C@@]2(Nc3ccccc3)c3c(OC)cc(OC)cc3O[C@@]2(c2ccc(OC)cc2)[C@@H]1c1ccccc1,0.9

# Sample 4 — tested at: 1 µM
# SMILES: CN([C@@H]1CCc2c(CC(=O)O)c3cc(S(C)(=O)=O)ccc3n2C1)S(=O)(=O)c1ccc(F)cc1
target,observed,method,remaining binding
"CDK11A (Homo sapiens, UniProt Q9UQ88)",cell-free assay,competition with immobilised ligand,100%
"HCK (Homo sapiens, UniProt P08631)",cell-free assay,competition with immobilised ligand,87%
"STK10 (Homo sapiens, UniProt O94804)",cell-free assay,competition with immobilised ligand,100%
"MAP3K19 (Homo sapiens, UniProt Q56UN5)",cell-free assay,competition with immobilised ligand,79%
"Aurora kinase C (AURKC, Homo sapiens, UniProt Q9UQB9)",cell-free assay,competition with immobilised ligand,78%
"TAOK3 (Homo sapiens, UniProt Q9H2K8)",cell-free assay,competition with immobilised ligand,73%
"BMP2K (Homo sapiens, UniProt Q9NSY1)",cell-free assay,competition with immobilised ligand,98%
"ERN1 (Homo sapiens, UniProt O75460)",cell-free assay,competition with immobilised ligand,100%
"EPHA8 (Homo sapiens, UniProt P29322)",cell-free assay,competition with immobilised ligand,98%
"DYRK1B (Homo sapiens, UniProt Q9Y463)",cell-free assay,competition with immobilised ligand,36%
"EGFR (Homo sapiens, UniProt P00533, L858R)",cell-free assay,competition with immobilised ligand,91%
"LIM domain kinase 2 (LIMK2, Homo sapiens, UniProt P53671)",cell-free assay,competition with immobilised ligand,100%
"FLT3 (Homo sapiens, UniProt P36888, D835H)",cell-free assay,competition with immobilised ligand,76%
"Non-receptor tyrosine-protein kinase TYK2, JH1 (TYK2, Homo sapiens, UniProt P29597)",cell-free assay,competition with immobilised ligand,100%
"Receptor-type tyrosine-protein kinase FLT3, autoinhibited (FLT3, Homo sapiens, UniProt P36888)",cell-free assay,competition with immobilised ligand,100%
"Ribosomal protein S6 kinase alpha-2, N-terminal kinase domain (RPS6KA2, Homo sapiens, UniProt Q15349)",cell-free assay,competition with immobilised ligand,99%
"MAP2K4 (Homo sapiens, UniProt P45985)",cell-free assay,competition with immobilised ligand,75%
"FGFR1 (Homo sapiens, UniProt P11362)",cell-free assay,competition with immobilised ligand,100%
"NEK3 (Homo sapiens, UniProt P51956)",cell-free assay,competition with immobilised ligand,59%
"EGFR (Homo sapiens, UniProt P00533, del747-750/T751S)",cell-free assay,competition with immobilised ligand,100%
"MAP3K15 (Homo sapiens, UniProt Q6ZN16)",cell-free assay,competition with immobilised ligand,93%
"STK32C (Homo sapiens, UniProt Q86UX6)",cell-free assay,competition with immobilised ligand,100%
"EGFR (Homo sapiens, UniProt P00533, T790M)",cell-free assay,competition with immobilised ligand,100%
"AAK1 (Homo sapiens, UniProt Q2M2I8)",binding,,100%
"PRKD3 (Homo sapiens, UniProt O94806)",cell-free assay,competition with immobilised ligand,100%

# For quick reference, copied from above (sample 4):
target,observed,method,remaining binding
"Non-receptor tyrosine-protein kinase TYK2, JH1 (TYK2, Homo sapiens, UniProt P29597)",cell-free assay,competition with immobilised ligand,100%
"HCK (Homo sapiens, UniProt P08631)",cell-free assay,competition with immobilised ligand,87%
"STK32C (Homo sapiens, UniProt Q86UX6)",cell-free assay,competition with immobilised ligand,100%
"AAK1 (Homo sapiens, UniProt Q2M2I8)",binding,,100%
